Measured values collected from several papers.
Each numbered part is a random draw from the data of one study; scales do not carry over between parts.

Study 1 — method: protein-binding microarray; molecule type: double-stranded DNA, one strand shown; matrix: in vitro; concentration: 0.8 µM; notes: whole 60-bp probe, no competitor; direction: higher = stronger binding; shared flanks, not repeated: … GTCTTGATTCGCTTGACGCTGCTG
Target: Centromere-binding protein 1, full length, N-terminal tag (CBF1, Saccharomyces cerevisiae, UniProt P17106, residues 1-351)
Sequence of UniProt P17106 (whole entry, looked up): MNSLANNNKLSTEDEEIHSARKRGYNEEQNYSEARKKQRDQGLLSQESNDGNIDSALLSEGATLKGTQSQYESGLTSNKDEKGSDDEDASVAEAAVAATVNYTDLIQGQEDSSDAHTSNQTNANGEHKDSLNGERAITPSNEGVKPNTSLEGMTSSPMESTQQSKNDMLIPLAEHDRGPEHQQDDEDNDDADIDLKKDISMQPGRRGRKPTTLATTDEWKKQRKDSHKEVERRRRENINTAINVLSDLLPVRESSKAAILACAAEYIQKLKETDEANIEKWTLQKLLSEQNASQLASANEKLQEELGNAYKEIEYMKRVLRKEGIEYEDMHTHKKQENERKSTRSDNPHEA
Oligonucleotide | fluorescence intensity [a.u.]
GAACTTTTCTCCAAGCACGAGTTACAGGAAAGGTAG | 759
CTAGTCTTTAATTGCCTCCTGACTTTGTTTTGTTTC | 678
CTAGCAGGCTTACGGCAGGTGGTGATTATATTTTTC | 561
CTACGCGATCAGCCGCACATGTCCATTATCATTTTC | 899
CTAGGTAGATCTCAGCACGTGTGCATGCGCATATTC | 5490
GAATCGATGAACAAGCACGTTATTTCTTAAACGTAG | 851
GAAGACTGTGGTGCTTACGTGATAACAAACAACTAG | 592
CTAAAACCGTAATGTCACATTTTGCATATATCTTTC | 609
CTATCGTCGACGTGTCATGTGATCAAGCCAATTTTC | 8810
GAATGAAATTCTGTGATCACAATTTTCCTCTAATAG | 605
GAATAGGCAGAGCATCAGATCATAAAGATAGTGTAG | 539
GAAGTACATGTGAAGCATGTGGTAACAGATGGATAG | 956
GAAGTACATATACCTCACCTGAGTTTTGCTTTTTAG | 493
GAACTTGTCTCAGGTCACACCATTCACGATTCCTAG | 735
GAAGAACTATTATTTCATCATATGAAAGATTAATAG | 528
CTATTTTGCGGGCATCACGTTCGTCGTGACATATTC | 995
GAATTGGTGCCGTACGGGCACGTGTATTATTTTTAG | 6480
CTACAGTTGGGTCTTCATGTGCCACTCACATGCTTC | 745
CTAAATATACTTGTTAACGTGATTAAACGTTTTTTC | 1110

Study 2 — method: protein binding microarray; molecule type: double-stranded DNA, one strand shown; matrix: in vitro; concentration: not given; reference: not given; direction: higher = stronger binding
Target: Histone acetyltransferase KAT6A, both winged helices, GST fusion (KAT6A, Homo sapiens, UniProt Q92794, residues 1-181)
Notes: 8-mer, flanks averaged, mean of 2 arrays, mostly near background
Construct (chain): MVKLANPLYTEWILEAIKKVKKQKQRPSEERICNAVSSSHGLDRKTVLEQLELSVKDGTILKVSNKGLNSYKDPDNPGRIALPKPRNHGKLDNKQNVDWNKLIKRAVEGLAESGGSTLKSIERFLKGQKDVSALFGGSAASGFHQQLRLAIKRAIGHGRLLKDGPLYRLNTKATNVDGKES
Oligonucleotide | E-score
CAAGAACC | -0.0227
ACGGAGAC | 0.238
AATGGCAT | -0.0156
GTCGCTAA | 0.125
CCTCTCCG | 0.0204
CAAAGTAG | -0.16
GTCTGCTA | -0.181
GCCACAAC | 0.0238
TAATTTCA | -0.0317
TATAGAAA | -0.0207
GGCCCCAA | 0.0226
AGAGTGTC | -0.113
TGGTCTAA | -0.114
TGGGACCA | -0.187
AGCCATCA | -0.0766
ATGGTGGC | -0.0434
CCCGTGGA | 0.25
AATGGGAC | -0.207
CACATTGG | -0.0883
GTGTATAA | -0.0461
CTGGGATC | -0.185
GTTACGTA | -0.0563
CGCGGCCG | 0.409

Study 3 — method: universal PBM; molecule type: double-stranded DNA, one strand shown; matrix: in vitro; concentration: 600 nM; direction: higher = stronger binding
Target: Sal-like protein 4, full length isoform A (SALL4, Homo sapiens, UniProt Q9UJQ4, residues 1-1053)
Sequence of UniProt Q9UJQ4 (whole entry, looked up): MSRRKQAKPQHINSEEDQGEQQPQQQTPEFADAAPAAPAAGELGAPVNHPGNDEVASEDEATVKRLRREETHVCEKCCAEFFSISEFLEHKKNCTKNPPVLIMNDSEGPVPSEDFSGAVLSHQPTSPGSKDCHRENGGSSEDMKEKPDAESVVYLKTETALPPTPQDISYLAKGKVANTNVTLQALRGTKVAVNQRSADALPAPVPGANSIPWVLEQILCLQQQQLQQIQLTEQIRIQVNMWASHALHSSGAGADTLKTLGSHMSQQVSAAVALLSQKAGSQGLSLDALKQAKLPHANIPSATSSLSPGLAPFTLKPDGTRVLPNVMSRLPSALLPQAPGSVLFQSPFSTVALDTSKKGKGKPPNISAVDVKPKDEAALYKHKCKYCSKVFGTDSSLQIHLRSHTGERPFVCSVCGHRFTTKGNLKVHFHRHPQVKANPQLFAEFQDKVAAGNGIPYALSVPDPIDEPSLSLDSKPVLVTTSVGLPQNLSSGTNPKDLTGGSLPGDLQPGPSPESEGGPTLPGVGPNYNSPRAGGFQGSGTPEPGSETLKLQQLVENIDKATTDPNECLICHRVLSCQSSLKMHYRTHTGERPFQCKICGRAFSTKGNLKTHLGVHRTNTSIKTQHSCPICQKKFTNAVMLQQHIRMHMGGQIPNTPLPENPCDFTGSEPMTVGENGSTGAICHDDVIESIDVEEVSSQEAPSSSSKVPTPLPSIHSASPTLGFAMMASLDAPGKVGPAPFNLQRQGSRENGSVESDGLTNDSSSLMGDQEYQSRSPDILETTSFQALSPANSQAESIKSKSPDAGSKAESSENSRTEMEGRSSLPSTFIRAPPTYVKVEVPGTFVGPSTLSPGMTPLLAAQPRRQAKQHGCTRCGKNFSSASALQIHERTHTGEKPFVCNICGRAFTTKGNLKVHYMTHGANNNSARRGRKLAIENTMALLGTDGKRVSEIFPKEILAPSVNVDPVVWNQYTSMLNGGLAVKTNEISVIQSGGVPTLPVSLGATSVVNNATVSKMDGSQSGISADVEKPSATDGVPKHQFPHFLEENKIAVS
Notes: 8-mer, flanks averaged, mean of replicates
Oligonucleotide | E-score
GGGATGAC | -0.178
AAGCACCA | -0.125
AAGTTGTC | 0.0789
ATCAGCTA | 0.117
AATTGTCT | 0.185
AGTCCGCA | -0.13
GGTTTAGA | 0.0753
ATCGCCCG | -0.323
AATAGCAA | 0.325
GAGAATCA | 0.000425
TGAGCAAA | -0.00912
AACGCGGC | -0.222
GAAGTCCA | -0.0683
CATCCGAG | -0.115
ACATAGGG | -0.078
AAGCATTA | 0.228
GGGCAAAA | 0.0516
GGAAAGCC | -0.251
AAGTTGCG | -0.0711
CGTCTTCA | 0.011
GGGTAGCA | -0.0927
ACTAGAAG | 0.0608
TCCAATCA | -0.0265
ATGGCGCC | -0.284
ATGGGTCG | -0.177

Study 4 — method: RNA Bind-n-Seq; molecule type: RNA; matrix: in vitro; concentration: 365 nM; reference: no-protein control; direction: higher = stronger binding
Target: RNA binding protein fox-1 homolog 2, RRM domain, GST-SBP tag (RBFOX2, Homo sapiens, UniProt O43251-10, residues 100-194)
Notes: natural RNA segment, single round, ends assumed
Shared flanks, not repeated: GGGAGUUCUACAGUCCGACGAUC … UGGAAUUCUCGGGUGCCAA
Target sequence (chain): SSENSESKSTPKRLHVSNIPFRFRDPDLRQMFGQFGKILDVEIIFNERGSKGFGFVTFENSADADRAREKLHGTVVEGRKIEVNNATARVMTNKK
Oligonucleotide | RBNS enrichment (R)
GACGAGCUAUAGGUCAUACAUGAAUGUCUAGUGAGACAUUCAAAAUUCGUAUAGGGUGCAGAGUAAUUUCUUAUUGUGAGGAACUGUCCAAUGUAUUGCAAGAUGUUCUG | 1.04
AAUUAUGAUAACAUGAGAUUUGCUGUUGUGCUUUUAGAGAAAAGUCUGGACUCAGCCACAAACUCUAAUAAGACCUGUACAUCUGAGAACCUUUCCCGUUACUGCGUUUU | 0.467
UGGCACGCAGCCUCCGUCUCCGGGGCUCUCCGGGACUAGCUGCAAAACUUAUGCUCUAAACAUUUCUAGUUCCCCCAAACAACCUAGAGGCCUUGGGACUUCACAUCCCC | 0.157
CAUGCUUGGGGACUGGUCCCACUGGAUCUCUAUCCUAACGUCCAUGGCCGUCAGCACCCCUCCUUUCCCCAAGGUGAAAUGGAGGGUGCUGUGGGGGCCUGCCCACUCCA | 0.508
UUUUUUCUCCCCAUCCCACUUAAGGUGAUGGGGCAAGGGAAGAACUCAGCUCCCCUCCCCUGAAUUAUAUUUGUAUGCUGGGUGGCCUGGCUGAUGCUCAGAGGCCUCCU | 3.08
CACAUCUCUCUUGAGAAUCCUUUAAGUGCUGUUUAGCCUCCCAACACAUAGAUGCAUAGGAUGGAGUUCCCUGAGGAAAACAGCACUUGAGCAUGGUGAGGAGUAGCCAG | 7.85
GCACUGCACCUGCUUCCUUCCCUUCAGUGCGGCCGACCCAUUUCUGUUGAACAGAUGUCUCCUGUGUGAUGCCCCUGACUCUUACAUUUAUCUUUCUAAAUCAUUUUCUG | 0.699
GCAUUCUACUGAAGAAAAUUUUGUAGCAAAAGAUUAGAACAGUAAGAAUAGUAUGCCAGCAAUCCCUGAUUCUCUCUCUGCUUGGUGUUCUCUGGCAGCACUAAGACAAA | 0.452

Study 5 — method: protein-binding microarray; molecule type: double-stranded DNA, one strand shown; matrix: in vitro; concentration: 2540 nM top; notes: 60-bp whole probe; added: salmon DNA 0.4 mg/ml; reference: random background probes; direction: higher = stronger binding; shared flanks, not repeated: GCCTAGCAC … GTCTTGATTCGCTTGACGCTGCTG
Target: Interferon regulatory factor 3, full length, phosphomimetic (IRF3, Homo sapiens, UniProt Q14653, residues 1-427, S386D/S396D/S398D/S402D/T404D/S405D)
Target sequence (chain): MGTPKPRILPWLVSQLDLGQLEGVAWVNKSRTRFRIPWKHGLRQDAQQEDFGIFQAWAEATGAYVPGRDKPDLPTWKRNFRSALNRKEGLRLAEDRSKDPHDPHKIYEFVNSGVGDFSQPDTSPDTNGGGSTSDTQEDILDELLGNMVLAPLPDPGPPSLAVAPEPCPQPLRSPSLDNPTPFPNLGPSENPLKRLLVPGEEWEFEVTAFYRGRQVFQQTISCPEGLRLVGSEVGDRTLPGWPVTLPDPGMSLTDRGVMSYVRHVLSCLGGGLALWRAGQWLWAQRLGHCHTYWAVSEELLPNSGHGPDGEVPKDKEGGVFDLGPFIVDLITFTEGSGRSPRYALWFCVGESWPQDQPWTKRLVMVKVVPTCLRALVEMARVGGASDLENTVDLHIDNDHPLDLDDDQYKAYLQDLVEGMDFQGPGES
Oligonucleotide | fitted relative affinity [z-score]
AACGGTATCGGTATCGGGACGTGCTAG | 4.65
GACGGACTGGACAGTGGGGACGTGCTA | -0.572
TTATGTCTCCTTCTCCTTTAGTGCTAG | 3.98
GGTGTTTTACAGGTTCTCTTTGTGCTA | 0.0917
TTAGGTCTCGGACTGGGGTAGTGCTAG | -0.455
TAAGGTCTCCTACTGCTTTAGTGCTAG | 0.516
TTAGGTTTCAGTATCGATTAGTGCTAG | 5.27
TTAGATTTCATTTCCGATTAGTGCTAG | 4.31
GACGGTATCGGTCTCCGGACGTGCTAG | 4.55
TTTTATGAAGGCCGGGGAGGGTGCTAG | 0.112
GACTGTATCCTTCTCCTGACGTGCTAG | 7.12
TTAGAATTCAGTCTCGATTAGTGCTAG | 1.01
GACCGACTGGGTCTCGGGACGTGCTAG | -0.257
TTAGGTTTCCTTACCCTTTAGTGCTAG | 6.4
GACGGGTCCCTTTTCCTGACGTGCTAG | 3.17
TTAGATATCAGGTTCGATTAGTGCTAG | 0.955

Some of these lines once more (study 2):
Oligonucleotide | E-score
GGCCCCAA | 0.0226
AGAGTGTC | -0.113
TGGTCTAA | -0.114
TGGGACCA | -0.187
AGCCATCA | -0.0766
ATGGTGGC | -0.0434
CCCGTGGA | 0.25
AATGGGAC | -0.207
CACATTGG | -0.0883
GTGTATAA | -0.0461
CTGGGATC | -0.185
GTTACGTA | -0.0563
CGCGGCCG | 0.409
